# Results pooled from the literature.
# Parts stem from different laboratories: compare values within a part only.
# Sequence of UniProt P28221 (whole entry, looked up): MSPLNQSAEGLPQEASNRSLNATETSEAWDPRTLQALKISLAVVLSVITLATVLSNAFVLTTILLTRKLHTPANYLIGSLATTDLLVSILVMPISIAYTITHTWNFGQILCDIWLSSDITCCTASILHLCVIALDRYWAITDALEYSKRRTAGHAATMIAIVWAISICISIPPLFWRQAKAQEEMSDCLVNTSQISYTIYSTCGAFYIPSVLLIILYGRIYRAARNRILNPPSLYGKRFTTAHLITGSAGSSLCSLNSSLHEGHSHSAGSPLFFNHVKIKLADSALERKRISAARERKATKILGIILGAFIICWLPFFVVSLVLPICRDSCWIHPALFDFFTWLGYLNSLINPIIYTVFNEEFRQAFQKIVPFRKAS
# Sequence of UniProt Q9Y5N1 (whole entry, looked up): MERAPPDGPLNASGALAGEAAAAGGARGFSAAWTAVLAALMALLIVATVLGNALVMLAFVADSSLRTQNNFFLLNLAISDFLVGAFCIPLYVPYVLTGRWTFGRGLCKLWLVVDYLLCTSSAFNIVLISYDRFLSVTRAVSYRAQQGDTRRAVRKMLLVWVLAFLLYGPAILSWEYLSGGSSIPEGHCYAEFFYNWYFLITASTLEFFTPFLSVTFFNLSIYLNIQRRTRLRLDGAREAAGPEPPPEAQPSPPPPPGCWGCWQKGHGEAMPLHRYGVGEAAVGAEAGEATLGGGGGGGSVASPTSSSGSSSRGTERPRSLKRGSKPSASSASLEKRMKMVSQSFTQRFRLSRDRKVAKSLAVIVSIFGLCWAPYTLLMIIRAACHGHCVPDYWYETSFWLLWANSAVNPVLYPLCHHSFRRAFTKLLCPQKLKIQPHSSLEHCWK
# Sequence of UniProt Q99720 (whole entry, looked up): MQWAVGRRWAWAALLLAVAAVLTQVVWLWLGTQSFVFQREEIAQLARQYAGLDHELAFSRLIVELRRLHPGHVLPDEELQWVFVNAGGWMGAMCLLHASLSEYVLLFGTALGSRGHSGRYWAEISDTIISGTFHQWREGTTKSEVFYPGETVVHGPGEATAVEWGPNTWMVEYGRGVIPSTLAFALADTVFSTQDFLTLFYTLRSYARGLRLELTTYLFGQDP
# Sequence of UniProt Q5BJF2 (whole entry, looked up): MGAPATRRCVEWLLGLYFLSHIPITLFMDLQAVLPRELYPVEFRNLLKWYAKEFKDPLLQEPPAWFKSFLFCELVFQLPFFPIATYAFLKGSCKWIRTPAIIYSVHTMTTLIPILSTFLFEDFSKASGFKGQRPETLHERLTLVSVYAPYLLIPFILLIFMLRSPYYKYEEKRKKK
# Sequence of UniProt P07550 (whole entry, looked up): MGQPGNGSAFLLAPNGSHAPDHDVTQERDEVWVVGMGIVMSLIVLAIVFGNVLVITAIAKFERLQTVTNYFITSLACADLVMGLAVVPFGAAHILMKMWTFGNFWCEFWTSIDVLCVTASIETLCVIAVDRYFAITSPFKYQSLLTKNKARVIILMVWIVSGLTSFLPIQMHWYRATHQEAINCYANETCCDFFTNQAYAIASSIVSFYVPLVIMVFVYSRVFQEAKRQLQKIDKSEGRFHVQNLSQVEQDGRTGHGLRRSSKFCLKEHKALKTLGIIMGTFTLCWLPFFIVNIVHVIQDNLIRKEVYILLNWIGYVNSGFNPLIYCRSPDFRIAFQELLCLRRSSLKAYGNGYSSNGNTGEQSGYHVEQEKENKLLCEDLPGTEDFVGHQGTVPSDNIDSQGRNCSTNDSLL
# Sequence of UniProt P28566 (whole entry, looked up): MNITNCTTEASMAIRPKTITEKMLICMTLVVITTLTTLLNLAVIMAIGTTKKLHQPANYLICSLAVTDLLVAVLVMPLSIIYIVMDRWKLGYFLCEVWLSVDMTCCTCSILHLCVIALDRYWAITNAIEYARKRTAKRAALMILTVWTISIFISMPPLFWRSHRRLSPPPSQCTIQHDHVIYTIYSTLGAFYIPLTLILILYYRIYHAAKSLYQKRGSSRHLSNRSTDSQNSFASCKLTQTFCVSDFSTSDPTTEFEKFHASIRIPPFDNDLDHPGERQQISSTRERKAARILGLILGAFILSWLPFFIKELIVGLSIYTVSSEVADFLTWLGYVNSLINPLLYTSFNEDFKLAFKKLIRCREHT

# Series 1 — host: human; matrix: microsomes or S9; concentration: 2 µM; time: 0.5 h
Structure (SMILES),remaining compound
OC(Cn1c(Cc2ccccc2)nc2ccccc21)Cn1c2ccc(Cl)cc2c2cc(Cl)ccc21 (centres unmarked),> 99%
Cn1ccnc1CC1CCN(c2cnccn2)CC1,79.9%
Clc1ccccc1C1NCCc2c1[nH]c1ccccc21 (centres unmarked),92.1%
Cc1ccc(CN2CCC(CNC(=O)c3c4c(nc5ccccc35)C(=O)N(C3CCCCC3)C4)C2)cc1 (centres unmarked),12.6%
Cc1c[nH]c(CN2C[C@H]3CC[C@@H]2CN(C(=O)c2ccccc2)C3)c(C)c1=O,> 100%
c1ccc(-c2csc(Oc3ccncc3)n2)cc1,57.7%
CCCC(=O)OC[C@@H](OC(=O)CCC)[C@@H](OC(=O)CCC)[C@H](Cn1c2nc(=O)[nH]c(=O)c-2nc2cc(C)c(C)cc21)OC(=O)CCC,56.3%
Cn1c(=O)c(O)c(C(=O)NCc2cccc(F)c2)c(=O)n1C,> 99%

# Series 2 — effect on: enzyme activity; mode: inhibitor; concentration: 77 µM; baseline: untreated
# Target: DNA polymerase theta, ATPase domain (POLQ, Homo sapiens, UniProt O75417)
# Sequence of UniProt O75417 (whole entry, unmodified, looked up): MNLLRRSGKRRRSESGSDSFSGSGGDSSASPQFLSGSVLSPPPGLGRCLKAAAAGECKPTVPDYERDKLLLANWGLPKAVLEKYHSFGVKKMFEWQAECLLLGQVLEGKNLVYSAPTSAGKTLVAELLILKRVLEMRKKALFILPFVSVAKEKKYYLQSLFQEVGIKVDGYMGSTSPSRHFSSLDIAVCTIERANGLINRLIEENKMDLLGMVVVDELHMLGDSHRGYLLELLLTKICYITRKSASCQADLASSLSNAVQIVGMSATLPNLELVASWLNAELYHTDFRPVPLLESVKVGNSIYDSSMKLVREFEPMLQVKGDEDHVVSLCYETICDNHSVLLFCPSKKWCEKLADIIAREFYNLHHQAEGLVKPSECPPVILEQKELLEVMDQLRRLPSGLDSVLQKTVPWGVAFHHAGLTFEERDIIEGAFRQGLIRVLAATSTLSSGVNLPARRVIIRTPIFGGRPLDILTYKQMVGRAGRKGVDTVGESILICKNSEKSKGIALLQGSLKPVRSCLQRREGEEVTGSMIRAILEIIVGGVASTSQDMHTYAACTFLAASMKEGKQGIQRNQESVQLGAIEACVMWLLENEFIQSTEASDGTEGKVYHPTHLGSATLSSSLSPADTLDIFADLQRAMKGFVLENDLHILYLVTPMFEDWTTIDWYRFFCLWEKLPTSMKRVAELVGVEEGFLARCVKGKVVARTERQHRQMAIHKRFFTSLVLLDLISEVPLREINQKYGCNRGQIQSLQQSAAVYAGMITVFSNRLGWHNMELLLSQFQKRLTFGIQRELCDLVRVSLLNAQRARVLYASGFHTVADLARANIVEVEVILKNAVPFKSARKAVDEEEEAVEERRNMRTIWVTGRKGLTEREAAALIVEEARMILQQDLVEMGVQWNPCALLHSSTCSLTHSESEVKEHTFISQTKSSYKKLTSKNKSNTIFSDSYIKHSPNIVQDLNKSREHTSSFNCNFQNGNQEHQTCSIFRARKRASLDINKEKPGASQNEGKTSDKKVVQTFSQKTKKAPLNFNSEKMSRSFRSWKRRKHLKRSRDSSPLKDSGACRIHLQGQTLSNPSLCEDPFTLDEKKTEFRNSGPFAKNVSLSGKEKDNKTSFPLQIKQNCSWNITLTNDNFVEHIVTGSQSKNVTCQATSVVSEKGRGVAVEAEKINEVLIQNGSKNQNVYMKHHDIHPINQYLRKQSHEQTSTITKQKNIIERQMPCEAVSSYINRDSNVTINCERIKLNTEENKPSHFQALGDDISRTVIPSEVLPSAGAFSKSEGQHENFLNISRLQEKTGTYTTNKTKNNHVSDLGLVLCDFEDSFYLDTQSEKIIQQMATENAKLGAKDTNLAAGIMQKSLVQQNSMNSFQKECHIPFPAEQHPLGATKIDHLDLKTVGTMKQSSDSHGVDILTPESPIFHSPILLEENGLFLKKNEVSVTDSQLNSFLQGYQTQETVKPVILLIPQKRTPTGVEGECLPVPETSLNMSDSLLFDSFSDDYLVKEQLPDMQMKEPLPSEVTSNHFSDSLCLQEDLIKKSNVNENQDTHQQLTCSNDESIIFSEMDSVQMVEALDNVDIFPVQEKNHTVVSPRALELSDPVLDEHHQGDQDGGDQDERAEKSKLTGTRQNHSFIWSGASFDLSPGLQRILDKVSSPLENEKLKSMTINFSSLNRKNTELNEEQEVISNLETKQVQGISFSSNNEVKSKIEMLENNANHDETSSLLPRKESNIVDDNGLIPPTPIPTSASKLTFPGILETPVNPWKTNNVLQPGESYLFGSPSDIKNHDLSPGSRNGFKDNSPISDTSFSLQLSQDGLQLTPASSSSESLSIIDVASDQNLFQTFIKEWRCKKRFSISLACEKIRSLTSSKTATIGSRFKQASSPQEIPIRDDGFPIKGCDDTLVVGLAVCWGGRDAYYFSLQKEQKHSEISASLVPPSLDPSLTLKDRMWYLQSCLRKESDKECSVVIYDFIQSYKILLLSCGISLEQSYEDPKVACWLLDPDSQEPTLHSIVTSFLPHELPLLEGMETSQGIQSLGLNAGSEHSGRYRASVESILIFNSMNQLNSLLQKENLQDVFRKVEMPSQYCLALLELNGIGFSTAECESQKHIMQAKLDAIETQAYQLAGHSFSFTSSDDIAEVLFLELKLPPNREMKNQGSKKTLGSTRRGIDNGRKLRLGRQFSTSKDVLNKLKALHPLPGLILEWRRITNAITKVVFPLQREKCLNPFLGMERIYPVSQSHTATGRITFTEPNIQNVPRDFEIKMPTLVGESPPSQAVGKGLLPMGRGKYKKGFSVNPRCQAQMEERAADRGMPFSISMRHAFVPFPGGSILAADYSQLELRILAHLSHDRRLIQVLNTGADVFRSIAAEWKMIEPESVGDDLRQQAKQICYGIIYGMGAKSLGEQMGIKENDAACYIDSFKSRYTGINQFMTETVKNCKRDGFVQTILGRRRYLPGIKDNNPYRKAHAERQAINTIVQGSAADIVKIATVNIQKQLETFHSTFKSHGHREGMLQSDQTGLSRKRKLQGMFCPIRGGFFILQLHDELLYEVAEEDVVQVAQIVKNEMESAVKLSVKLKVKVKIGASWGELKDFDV
SMILES,remaining activity
Nc1nc(N)c2nc(-c3cccc(O)c3)c(-c3cccc(O)c3)nc2n1,119%
CCOc1nc2cccc(C(=O)OC(C)OC(=O)OC3CCCCC3)c2n1Cc1ccc(-c2ccccc2-c2nn[nH]n2)cc1 (centres unmarked),78%
CC(C)Oc1ccc2c(=O)c(-c3ccccc3)coc2c1,95.1%
CCCCc1c(-c2ccc(O)cc2)[nH]c2nccnc12,86.7%

# Series 3 — effect on: binding; technique: radioligand binding; concentration: 10 µM
# SMILES: CNC(=O)c1cc(C(=O)N[C@H]2[C@@H]3COC[C@@H]32)cc2c1O[C@@H](CF)[C@@H]2c1ccccc1
target,inhibition
"Alpha-1A adrenergic receptor (ADRA1A, Homo sapiens, UniProt P35348)",7.39%
"Sigma non-opioid intracellular receptor 1 (SIGMAR1, Homo sapiens, UniProt Q99720)",10.2%
"Beta-2 adrenergic receptor (ADRB2, Homo sapiens, UniProt P07550)",9.35%
"5-hydroxytryptamine receptor 1E (HTR1E, Homo sapiens, UniProt P28566)",0.03%
"Sigma intracellular receptor 2 (TMEM97, Homo sapiens, UniProt Q5BJF2)",35.6%
"5-hydroxytryptamine receptor 1D (HTR1D, Homo sapiens, UniProt P28221)",-8.07%
"Histamine H3 receptor (HRH3, Homo sapiens, UniProt Q9Y5N1)",-5.65%

# Series 4 — effect on: enzyme activity; mode: inhibitor; concentration: 0.5 µM; baseline: control
# Target: Protein kinase C epsilon type (PRKCE, Homo sapiens, UniProt Q02156)
# Residues (Q02156 1-737): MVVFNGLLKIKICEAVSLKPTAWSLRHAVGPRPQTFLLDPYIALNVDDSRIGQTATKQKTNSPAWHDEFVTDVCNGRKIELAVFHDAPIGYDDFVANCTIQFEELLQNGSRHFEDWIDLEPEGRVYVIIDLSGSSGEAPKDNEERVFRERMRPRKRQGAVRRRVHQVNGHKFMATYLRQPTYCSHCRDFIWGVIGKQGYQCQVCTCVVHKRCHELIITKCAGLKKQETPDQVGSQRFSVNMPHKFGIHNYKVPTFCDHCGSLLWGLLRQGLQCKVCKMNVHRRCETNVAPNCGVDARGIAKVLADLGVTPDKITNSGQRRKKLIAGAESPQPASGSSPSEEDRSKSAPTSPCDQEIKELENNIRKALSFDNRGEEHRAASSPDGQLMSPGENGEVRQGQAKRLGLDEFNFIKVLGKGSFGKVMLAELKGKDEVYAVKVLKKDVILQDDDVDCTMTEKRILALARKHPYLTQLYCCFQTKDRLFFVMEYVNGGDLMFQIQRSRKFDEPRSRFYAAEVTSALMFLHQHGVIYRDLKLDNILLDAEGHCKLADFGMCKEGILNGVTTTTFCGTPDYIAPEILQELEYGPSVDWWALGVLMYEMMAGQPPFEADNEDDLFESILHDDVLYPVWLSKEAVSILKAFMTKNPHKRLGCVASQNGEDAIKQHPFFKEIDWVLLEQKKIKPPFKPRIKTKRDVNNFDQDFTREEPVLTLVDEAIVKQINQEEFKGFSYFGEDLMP
SMILES,remaining activity [%]
NCCNc1ncc(C(N)=O)c(Nc2cccc(C(F)(F)F)c2)n1,76.5
Cc1ccc(Nc2nccc(N(C)c3ccc4c(C)n(C)nc4c3)n2)cc1S(N)(=O)=O,100
Cc1cccc(-c2[nH]c(C(C)(C)C)nc2-c2ccc3c(c2)OCO3)n1,97.9
Oc1ccc(-c2nc(-c3ccncc3)c(-c3ccc(F)cc3)[nH]2)cc1,96
O=C(Nc1cccc(Nc2cc(Nc3cccc(C(F)(F)F)c3)ncn2)c1)C1CC1,89.2
COc1cc2ncnc(Nc3ccc(Oc4ccccc4)cc3)c2cc1OC,94.6
Nc1ncnc2n[nH]c(Nc3ccc(F)cc3)c12,99.5
Nc1ccc2ncnc(NCCc3ccc(Oc4ccccc4)cc3)c2c1,109
C#Cc1cccc(Nc2ncnc3cc(OCCOC)c(OCCOC)cc23)c1,98.5
OCC(O)CCON=C1C(c2c(O)[nH]c3ccccc23)=Nc2ccccc21 (centres unmarked),92.2
Cn1c2ccccc2c2c3c(c4c5ccccc5n(CCC#N)c4c21)CNC3=O,58.5
COc1ccc(C(=O)Nc2sc3c(c2C(N)=O)CCCC3)cc1OC,95
O=S(=O)(c1cccc2cnccc12)N1CCCNCC1,76.5
O=C(CCCc1ccc(-c2ccccc2F)cc1)Nc1ccc(O)cc1,103
O=C1NC(=O)C(c2cn(CCCn3ccnc3)c3ccccc23)=C1Nc1ccccc1,12.8
Cc1ccc(NC(=O)c2ccc(CN3CCN(C)CC3)cc2)cc1Nc1nc(-c2cccnc2)cs1,100

# A few entries again (series 2):
SMILES,remaining activity
Nc1nc(N)c2nc(-c3cccc(O)c3)c(-c3cccc(O)c3)nc2n1,119%
CC(C)Oc1ccc2c(=O)c(-c3ccccc3)coc2c1,95.1%
CCCCc1c(-c2ccc(O)cc2)[nH]c2nccnc12,86.7%
CCOc1nc2cccc(C(=O)OC(C)OC(=O)OC3CCCCC3)c2n1Cc1ccc(-c2ccccc2-c2nn[nH]n2)cc1 (centres unmarked),78%
